Measurements gathered from unrelated publications.
A part holds a random share of what one study measured.

Study 1
Target: Protein C-ets-1, full length (ETS1, Homo sapiens, UniProt P14921, residues 1-441)
Method: protein-binding microarray
Form: hairpin DNA
Medium: in vitro
Tested at: not given
Notes: whole hairpin DNA, median over replicate spots
Reference: not given
Direction: higher = stronger binding
Shared flanks, not repeated: GAGGCCAG … CTGGCCTCACACTC
Residues (chain): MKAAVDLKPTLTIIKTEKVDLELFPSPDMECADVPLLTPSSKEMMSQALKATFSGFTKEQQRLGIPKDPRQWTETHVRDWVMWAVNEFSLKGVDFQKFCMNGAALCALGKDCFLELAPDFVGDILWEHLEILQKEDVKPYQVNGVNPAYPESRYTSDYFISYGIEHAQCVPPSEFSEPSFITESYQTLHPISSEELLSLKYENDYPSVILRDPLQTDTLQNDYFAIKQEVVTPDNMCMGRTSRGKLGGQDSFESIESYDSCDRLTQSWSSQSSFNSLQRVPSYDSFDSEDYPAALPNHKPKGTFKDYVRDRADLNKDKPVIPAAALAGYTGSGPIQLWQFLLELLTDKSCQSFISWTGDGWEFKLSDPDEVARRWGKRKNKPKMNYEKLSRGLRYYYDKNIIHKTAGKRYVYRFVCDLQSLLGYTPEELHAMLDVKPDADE
The median fluorescence of `TCGGAAGTGGCCTCCTGGCCACTTCCGA (5mC at 28)` is reported as 3700 a.u.
The median fluorescence of `CCGGAAGTTGCCTCCTGGCAACTTCCGG (5mC at 34)` is reported as 9110 a.u.
With `CCGGAAGCTGCCTCCTGGCAGCTTCCGG` the median fluorescence was 6420 a.u.
For `TCGGCGGTTGCCTCCTGGCAACCGCCGA`, the median fluorescence was 562 a.u.
The median fluorescence of `TCGGAACGTGCCTCCTGGCACGTTCCGA (5mC at 15)` is reported as 599 a.u.
`CCGGAAGCTGCCTCCTGGCAGCTTCCGG (5mC at 16)` has a median fluorescence of 5630 a.u.
`TCGGCAGTTGCCTCCTGGCAACTGCCGA` gave a median fluorescence of 568 a.u.
With `CCCGAAGTTGCCTCCTGGCAACTTCGGG (5mC at 11 33)` the median fluorescence was 546 a.u.

Study 2
Target: PABPC1L2, full length, GST fusion (mouse, UniProt A0ABA7IW68)
Method: RNAcompete
Form: RNA
Medium: in vitro
Tested at: 20 nM
Notes: 7-mer, probes averaged, single round
Reference: mean of 7-mers
Direction: higher = stronger binding
Construct (chain): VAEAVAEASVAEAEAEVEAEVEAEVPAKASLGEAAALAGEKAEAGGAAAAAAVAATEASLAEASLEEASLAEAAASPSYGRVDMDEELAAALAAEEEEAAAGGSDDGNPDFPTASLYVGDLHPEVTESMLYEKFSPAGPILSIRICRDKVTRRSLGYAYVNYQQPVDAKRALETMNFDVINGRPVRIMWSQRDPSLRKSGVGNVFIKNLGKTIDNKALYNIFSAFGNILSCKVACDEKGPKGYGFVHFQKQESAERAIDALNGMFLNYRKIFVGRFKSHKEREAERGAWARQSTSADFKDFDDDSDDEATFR
With `CGGGUCU` the 7-mer Z-score was -0.0554.
With `GACAAUC` the 7-mer Z-score was -0.0464.
With `GCUCCCG` the 7-mer Z-score was -0.255.
`UGUUUAU` has a 7-mer Z-score of -0.353.
The 7-mer Z-score of `UCGCAAU` is reported as -0.188.
`UAUGUGA` has a 7-mer Z-score of -0.206.
The 7-mer Z-score of `CUGUUCU` is reported as -0.351.
With `GCUACUC` the 7-mer Z-score was -0.217.

Study 3
Target: RNA binding protein fox-1 homolog 2, RRM domain, GST-SBP tag (RBFOX2, Homo sapiens, UniProt O43251-10, residues 100-194)
Method: RNA Bind-n-Seq
Form: RNA
Medium: in vitro
Tested at: 365 nM
Notes: natural RNA segment, single round, ends assumed
Reference: no-protein control
Direction: higher = stronger binding
Shared flanks, not repeated: GGGAGUUCUACAGUCCGACGAUC … UGGAAUUCUCGGGUGCCAA
Target sequence (chain): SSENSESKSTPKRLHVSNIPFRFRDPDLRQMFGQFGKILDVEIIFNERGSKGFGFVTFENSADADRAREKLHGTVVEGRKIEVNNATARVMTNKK
`CUAAUAUAGGCAGCAGACUGUUUUACGGGUUGCUGUUUUAACAUGGGUUUUUGUCAGAUCCAUGGUCUUAGGACUUGACUGAUGAGCUUUCAGUGAAGAAUCCUCUAAGA`: “RBNS enrichment (R)” 0.314.
`CAAUCUUGUAUUUUCUGACCACAUAAAGGCUUCUUCUCUUUGUAAUAAAGUAGAAAAGCUCUCCUCACUGCAGUGUUGGCUUUGAUUUGAAAUUGCGAAAUUAUUUCUUC`: “RBNS enrichment (R)” 0.406.
Under “RBNS enrichment (R)”, `GCUAAAGCCGAUGGUGAAGAAAAGGUGCUGGUCUCAUGAGCCCUGAAGAAUGAACUCAGAGGAGGUUGUUUACAUGAGGUUCUCCCACUCACCAGCUGUUGAGAGUCUGC` is recorded as 0.507.
Under “RBNS enrichment (R)”, `CUAUGGCAGUCCUGACUUGCUGAUGACCAUAUGCUGGUGACCUACAAAUCGGGAUCCUGCCAUAUGGGGUCGCCACUGGACUUUCUGCACUGGAUCUCAAGAGCGUUGAG` is recorded as 0.235.
`AAAUAUGCAAGGUUUGUUCUAUAUUAUGAUCACUAUUAAUCUUUUAUCACUCAAUUUUAAAACUAGUAAUUUACUUUGGCUCAGAAAUGUACUAUAUUUAUAAUUAUUGU`: “RBNS enrichment (R)” 3.09.
`AAUCGGGAUUUUGACUGAAUGGGAUGUCUGGCAUGAGUCCCACUUUGGCCAUUGUCUAUUUGACAGUAACAGUAUUCCCAAUUUUUGUAAAGUUGUAUGUGCUGUUGUGU`: “RBNS enrichment (R)” 3.65.
`ACUGUCCCCCGUCUGUCCAGCAAUAGUCUGUCCAGAGACAAGCUUCUGUAGCGGCAGGGCUUCCGCAAAACUAACCUGCUUUGUCCAGGUCACCCCAGACACCGCCCCUC` — result for “RBNS enrichment (R)”: 0.443.
`UACCAAAUUGUUUUUUUCUUUUUAAAAGGAAGUUUAAUGUCCGUUGUAUCACAAAUCAGUGUUAAAACACCAGAACUUUAGCCAAAAUAAAUGUCUUACAUUACAAAGGU` — result for “RBNS enrichment (R)”: 0.931.

Other studies, line by line
`CCCCNc1cc(C(=O)O)cc(S(N)(=O)=O)c1Oc1ccccc1` gave a viability of 117% (A-375; 100 µM, 36 h).

A few entries again (study 3):
`ACUGUCCCCCGUCUGUCCAGCAAUAGUCUGUCCAGAGACAAGCUUCUGUAGCGGCAGGGCUUCCGCAAAACUAACCUGCUUUGUCCAGGUCACCCCAGACACCGCCCCUC` — result for “RBNS enrichment (R)”: 0.443.
`UACCAAAUUGUUUUUUUCUUUUUAAAAGGAAGUUUAAUGUCCGUUGUAUCACAAAUCAGUGUUAAAACACCAGAACUUUAGCCAAAAUAAAUGUCUUACAUUACAAAGGU` — result for “RBNS enrichment (R)”: 0.931.
